Measurements of several laboratories.
Numbered parts are unrelated; each lists some results of a single study.

Block 1 — method: RNA Bind-n-Seq; form: RNA; matrix: in vitro; concentration: 365 nM; baseline: no-protein control; reading: higher = stronger binding; quantity: RBNS enrichment (R)
Target: RNA binding protein fox-1 homolog 2, RRM domain, GST-SBP tag (RBFOX2, Homo sapiens, UniProt O43251-10, residues 100-194)
Setting: natural RNA segment, single round, ends assumed
Constant ends, left off below: GGGAGUUCUACAGUCCGACGAUC … UGGAAUUCUCGGGUGCCAA
Residues (chain): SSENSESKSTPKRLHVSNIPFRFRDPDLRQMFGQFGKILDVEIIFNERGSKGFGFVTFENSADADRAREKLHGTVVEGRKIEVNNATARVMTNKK
UUUUGUGUUAAUAGAGUAUUGUUUUAGCAUGUGAUCAGAUCUUAAGAAAGAAAGAAAGAAAGACAGCAAAGCCUGAAUUCUUUUUGAGAGAUGGAGAUGAGGUACAUCAG: 3.5
ACUGGAGUUGCUGUUCCAGCUGGUCGCCCCUCACGGCACAGAGGGAACCUGAGAGCCAGAGACUUCUUGGGCCUUCCUGCCUGCCACCCCCUAGGGGCCAGGACAGGACC: 0.31
CCCCAUCGCUACCAUUUGGCCAAACAACCGGCUACAAUGCUCUUCCUCUUCUGGAAUGUUGCUGACCCAGGCCGUGGACUUGGCUGAGCACUGUUAGACACACACAGACC: 0.667
CCGUCAGCGAUUGUUGUGUUACCUUCUGGUGUUCCCUCACUGAUUGUGGACAAACCUGGCAGUUGAGCUUUGCAGUCAAUUAUGCCGUAUCCCUGUGCAAACUCCCAUGU: 0.29
UCCUUCCUCUCCCUCCUGAUAAACAUCUAAGCAGUUUCUAAGUCUAGUUUUACCUCUUAAAUAUCUCUGUUCCCUUCUAAGUUGUUUGCUGUGUUUUCUUCAGAGCAAGA: 0.564
GAUUGUUUUGUGAUGCUUGCCCUGCCUCGGUAUUGCCAGUUUCUUGUGCAAUAAAGAAUCAGCAGCCAUGGGUGGUGUCAGUGUAGCUGUUUAUACACAUUCUGUUGCAG: 0.388
UUACACUACUUAGAAAAUCACCUUUUCAGAUAAAACAGUUUAUGAGUUCAUAGAGAACACCAGCACUCUUUGACAAAACUGUGAGUGACCCUUUUUAAACAAUGCUGAGC: 0.604
AGGUUGAUUUUUGUGUUGAUCCAAAUCAGAAUAGCUAUUGAGUGUUUAAGUCAUGACUUUAUUUUUCUGGGCAUGCUAUAUAAACUUGAAUUUCCUAUGUAUUUUUAUUG: 1.17
UGUGCUGGAUGUUGCUCCUUUCCCCGAUUUCAAGUUGAUGUUGACAGAAUUUCAGUAGCUUACAUAAAUCCUGAGAAUGUGAUUGGUUUUAAAAAGUAAGGUUUAAAGUC: 5.03
AAGAGAUAAAGAUGCCGGUUCCAACCAGAAGUUUGGGGAGCCUCAGGACAUGGCAUGCUUUGUGGAUCCCCAUGAUAGUCUACAAAAGCACCCCGCCCCUCUGGGCACUG: 0.76
GAUGAAACUGAUUUGGAGCACCCUUUUCUUUAUCGCUACAUUUAUUUAGGGGACAAACUCCAUCCAGGUUGACUCUCUCUGGAAUGCGGUAAUAAGAGCUGGCAAGUAAG: 0.843
CCACUGCACUCCAGCCUGGGGUGAUAGAACAAGACCCUGUCUCAAAAAAAAAAAAAACAACAAAAACUUAGAAUUGAGGAGUUGUACCUCCAUUGGCUUCCUCACUCCAA: 0.812

Block 2 — method: protein binding microarray; form: double-stranded DNA, one strand shown; matrix: in vitro; concentration: not given; baseline: not given; reading: higher = stronger binding; quantity: E-score
Target: Histone acetyltransferase KAT6A, both winged helices, GST fusion (KAT6A, Homo sapiens, UniProt Q92794, residues 1-181)
Setting: 8-mer, flanks averaged, mean of 2 arrays, mostly near background
Construct (chain): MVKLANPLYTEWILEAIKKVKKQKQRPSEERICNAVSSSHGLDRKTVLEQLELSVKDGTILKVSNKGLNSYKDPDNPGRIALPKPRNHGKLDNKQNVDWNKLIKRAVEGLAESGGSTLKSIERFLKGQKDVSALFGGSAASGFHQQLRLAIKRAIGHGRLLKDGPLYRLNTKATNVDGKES
CCATGACA: -0.104
GAGTTCTA: -0.127
TCACTCAA: -0.16
CGGGCATC: 0.0895
AAGACCAA: -0.032
ACAATCAC: -0.0736
GGGCGGTA: 0.162
GTGTTTCA: -0.0282
GGAAATCC: 0.0749
GCGTTAAC: 0.289
TGGACCCA: -0.12
CAAAGTCG: -0.0973
GTCAGCAC: -0.00369
CACTCTAG: -0.12
CACTATGC: -0.0226
GATATACC: -0.0023
AACTAAGC: -0.0688
AAAACGGA: 0.128
CACTTATC: -0.156
CCATTAAC: -0.114
ATTTAGTG: -0.181
GGCTCAAA: 0.11
ATTGCAAG: -0.148
TCGCGCGA: 0.384
AGAAGGAT: -0.193

Block 3 — method: RNA Bind-n-Seq; form: RNA; matrix: in vitro; concentration: 200 nM; setting: whole 134-nt RNA, ends assumed; together with: 150 mM KCl; baseline: input library; reading: higher = stronger binding; quantity: log2 enrichment
Target: Ras GTPase-activating protein-binding protein 1, full length (G3BP1, Homo sapiens, UniProt Q13283)
Sequence of UniProt Q13283 (whole entry, looked up): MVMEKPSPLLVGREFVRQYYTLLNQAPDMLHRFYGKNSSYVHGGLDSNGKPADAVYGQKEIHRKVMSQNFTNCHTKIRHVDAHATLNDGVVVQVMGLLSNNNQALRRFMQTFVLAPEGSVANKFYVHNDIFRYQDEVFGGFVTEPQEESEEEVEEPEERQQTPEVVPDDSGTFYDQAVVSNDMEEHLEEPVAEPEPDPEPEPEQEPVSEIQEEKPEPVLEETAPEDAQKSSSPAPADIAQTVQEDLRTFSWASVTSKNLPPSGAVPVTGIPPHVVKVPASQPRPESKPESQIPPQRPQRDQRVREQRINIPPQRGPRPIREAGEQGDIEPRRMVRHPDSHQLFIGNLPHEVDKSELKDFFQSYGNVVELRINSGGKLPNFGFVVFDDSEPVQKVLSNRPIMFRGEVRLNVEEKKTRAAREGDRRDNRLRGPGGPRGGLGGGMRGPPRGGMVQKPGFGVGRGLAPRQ
Constant ends, left off below: GGGAGUUCUACAGUCCGACGAUC … UGGAAUUCUCGGGUGUCAAGG
CUCAAGUCCUGUGCUACACAUCGUAUGUACCGAAUCGGUUUGGUUUUUGGUGGAAAGUAUUAUGUUACGCCGUUCGGAUCUGCACUUCCA: -0.419
UGGGAGGUGGAUUUUGUUUAUUUUUUUAGCUCAUUUCCAGGGGUGGGAAUUUAUUUUUAAUAUGUGUCAUGAAUAAAGUUGUUUUUGAAA: 0.244
GUCCUGUGCUACACAUCGUAUGUACCGAAUCGGGGAAAAAGGGGUGGGGUUUUUGGGGAAAGUAUUAUGUUACGCCGUUCGGAUCUGCAC: 0.358
UGGUAAGAAAUCUGCUUGUUUUAUUAAAAUGCUUAAUUGAAGAAAAUAAUAUUCUUCUGUGAUUAAAAUUAGGAAGAAAUAGAACCAUUU: -1.58
AAGUCCUGUGCUACACAUCGUAUGUACCGAAUCGGUUUUUUUGGUUUUUUUGGAGGAAAGUAUUAUGUUACGCCGUUCGGAUCUGCACUU: -0.982
GUCCUGUGCUACACAUCGUAUGUACCGAAUCGGGAAAAAAAGGGUGGGAAAAAAAGGGAAAGUAUUAUGUUACGCCGUUCGGAUCUGCAC: -0.373
UCCUGUGCUACACAUCGUAUGUACCGAAUCGGGGCCCCCGGGGCCCCCGGGGCCCCCGGGAAAGUAUUAUGUUACGCCGUUCGGAUCUGC: -0.629
AGUCCUGUGCUACACAUCGUAUGUACCGAAUCGGGGAAAAAGGGGUGGGGUUUGGGGAAAGUAUUAUGUUACGCCGUUCGGAUCUGCACU: 0.175
CACAGACAACACGCACCCACACAGACGCAGAGGGAAGGGGUUGGGAUGGGGACAGGGUGCACAGCAGGGCGGGGUAGGACCCCAGCCCCU: 1.73
CCUCAAGUCCUGUGCUACACAUCGUAUGUACCGAAUCGGUUUGGUUUGGUGGAAAGUAUUAUGUUACGCCGUUCGGAUCUGCACUUCCAG: -0.298
UAACUUUAGAGGAGGAUCUGAUGGAUAUGGCAGUGGACGUGGAUUUGGGGAUGGCUAUAAUGGGUAUGGAGUAGGACCUGGAGGUGGCAA: 0.21
CCUCAAGUCCUGUGCUACACAUCGUAUGUACCGAAUCGGAAAAAGGUGGAGGAAAGUAUUAUGUUACGCCGUUCGGAUCUGCACUUCCAG: 0.0265
UAGCUUUAGAGGAGGAUCUGAUGGAUAUGGCAGUGGACGUGGAUUUGGGGAUGGCUAUAAUGGGUAUGGAGGAGGACCUGGAGGUGGCAA: 0.293
CAAGUCCUGUGCUACACAUCGUAUGUACCGAAUCGGGAAAGGGUGGGAAAAAGGGAAAGUAUUAUGUUACGCCGUUCGGAUCUGCACUUC: 0.819

Block 4 — method: RNA Bind-n-Seq; form: RNA; matrix: in vitro; concentration: not given; baseline: input RNA pool; reading: higher = stronger binding; quantity: bound/input enrichment
Target: RING finger protein unkempt homolog, zinc fingers 1-6, GST-SBP tag (UNK, Homo sapiens, UniProt Q9C0B0, residues 30-357)
Setting: RNA with constant flanks, human-mouse chimeric sites, ends assumed
Constant ends, left off below: GGGAGUUCUACAGUCCGACGAUC … CAACAGAGGAUUGAGCAUCA
Target sequence (chain): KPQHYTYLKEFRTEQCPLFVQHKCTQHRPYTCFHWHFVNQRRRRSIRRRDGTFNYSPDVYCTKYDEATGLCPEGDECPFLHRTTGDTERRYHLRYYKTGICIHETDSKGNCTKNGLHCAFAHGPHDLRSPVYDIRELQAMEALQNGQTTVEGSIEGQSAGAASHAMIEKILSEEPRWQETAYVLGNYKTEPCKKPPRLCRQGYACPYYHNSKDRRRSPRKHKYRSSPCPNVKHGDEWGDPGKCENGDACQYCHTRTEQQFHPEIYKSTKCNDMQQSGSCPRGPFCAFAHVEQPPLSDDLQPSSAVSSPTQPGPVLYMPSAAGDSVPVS
CUCUUUGAAUCUUUCAAGAGUUUUGAAGGUCUCUUUUAUUUUCUGGGGUCCAUUGUUAACUUUAGUCAGGACCCAGAUGUGCACUUUAAAUAUAUUCAGGCGGCUUGCAAGACUGGGCAA: 0.665 ratio
CGGAGCCCUCCUCUCCCACAGGCCCAAGAUAUAACCCACCAGUGCCUUUUGUCUUCCUGUCAGCUCUGUCAAUCACGCCUGUCCUCUGUCCCUCUCACCAAGUGCCCCCACCCCUAAGGG: 0.343 ratio
ACUCAGAGAUCCACCUCCCAAAGUGCUGGGAGUAAAGGUGUGGCCACCACACCUAACUUGAUGGAUAUAUAUUUUUUUUAAUAUGAAUGAACUCUUGCGUCCAGGGAGCAAGAACGGGUU: 0.872 ratio
GCUGAAAAUGAAGAAGAGGCAGCUGAUGUCUGGUACAACCUGGGGCACAUAGCUGUGGGAAUCGGAGAUACAAAUUUGGCCCACCAAUGCUUCAGGCUGGCUCUGGUCCACAACAACCAC: 0.153 ratio
UCUGGUCACACUCGUGUGUAUGGUGUUUGCUUUGUGGACACUUCACUGGGCAAGUUUUUCAUCGGCCAGUUUUCGGAUGACCGCCACUGUUCCAGAUUUAGGACUCUAGUGGCACACUAU: 0.171 ratio
AAUUUCCUGUCAUACUUUGUAGCAAGACACAUCAGACUUACAGAGCACCUGGCCACAUUCUAGGUUUGUGUUAUUUCUCAGCUAUGGAUAUGAUCAAAUGAGAACACUGGCAGCCAGAUG: 0.293 ratio
GGAAGUACAAUGAUGGAGAUUGAUGGUGACAAAGGCAAGCAGGGCGGGCCCACCUACUACAUAGACACCAAUGCCCUCCGCGUGCCCAGGGAGAAUAUGGAGGCCAUCUCACCACUCAAG: 0.238 ratio
CUUAAUGUUAAUAUUUUUGAAUAAAUGAAGCUAAAAUUUUGCUUUCUGGUACAACACGCAUUAAUAAAAGGUUAAGUUUUGUUUUCCACUGAAGUACUAUUUAACAUACAUCUCAGAAAC: 0.333 ratio
GUGCCCUUCUCGCUGCUCCUGCGGGGCCCCAGCUGGGCAUUCCGGGACUGGUACCCUGCACACAGCCGCCUCUUCGAUCAAGCUUUCGGGGUGCCCCGGUUGCCCGAUGAGUGGUCGCAG: 0.0793 ratio
AAAGAACUACUGAGGCAAGGCAGCAAAUUUAGGAGAGACAUUUCAACAAUAUUGAUAGAGUUAGGAUUCCAAAUUAAAAAAAAAACUAAGACAUUAUACAUCAACAAAGCCAAUAUCUGG: 17.5 ratio
GCUGAAAAUGAAGAAGAGGCAGCUGAUGUCUGGUACAACUUGGGACAUGUAGCUGUGGGAAUCGGAGAUACAAACUUGGCCCACCAAUGCUUCAGGCUGGCCCUGGUCCACAACAACCAC: 0.124 ratio

Some of these lines once more (block 1):
UUUUGUGUUAAUAGAGUAUUGUUUUAGCAUGUGAUCAGAUCUUAAGAAAGAAAGAAAGAAAGACAGCAAAGCCUGAAUUCUUUUUGAGAGAUGGAGAUGAGGUACAUCAG: 3.5
ACUGGAGUUGCUGUUCCAGCUGGUCGCCCCUCACGGCACAGAGGGAACCUGAGAGCCAGAGACUUCUUGGGCCUUCCUGCCUGCCACCCCCUAGGGGCCAGGACAGGACC: 0.31
CCCCAUCGCUACCAUUUGGCCAAACAACCGGCUACAAUGCUCUUCCUCUUCUGGAAUGUUGCUGACCCAGGCCGUGGACUUGGCUGAGCACUGUUAGACACACACAGACC: 0.667
CCGUCAGCGAUUGUUGUGUUACCUUCUGGUGUUCCCUCACUGAUUGUGGACAAACCUGGCAGUUGAGCUUUGCAGUCAAUUAUGCCGUAUCCCUGUGCAAACUCCCAUGU: 0.29
UCCUUCCUCUCCCUCCUGAUAAACAUCUAAGCAGUUUCUAAGUCUAGUUUUACCUCUUAAAUAUCUCUGUUCCCUUCUAAGUUGUUUGCUGUGUUUUCUUCAGAGCAAGA: 0.564
GAUUGUUUUGUGAUGCUUGCCCUGCCUCGGUAUUGCCAGUUUCUUGUGCAAUAAAGAAUCAGCAGCCAUGGGUGGUGUCAGUGUAGCUGUUUAUACACAUUCUGUUGCAG: 0.388
UUACACUACUUAGAAAAUCACCUUUUCAGAUAAAACAGUUUAUGAGUUCAUAGAGAACACCAGCACUCUUUGACAAAACUGUGAGUGACCCUUUUUAAACAAUGCUGAGC: 0.604
AGGUUGAUUUUUGUGUUGAUCCAAAUCAGAAUAGCUAUUGAGUGUUUAAGUCAUGACUUUAUUUUUCUGGGCAUGCUAUAUAAACUUGAAUUUCCUAUGUAUUUUUAUUG: 1.17
UGUGCUGGAUGUUGCUCCUUUCCCCGAUUUCAAGUUGAUGUUGACAGAAUUUCAGUAGCUUACAUAAAUCCUGAGAAUGUGAUUGGUUUUAAAAAGUAAGGUUUAAAGUC: 5.03
